{"data": "Measurements collected from several papers", "note": "A part holds a random share of what one study measured. Changes are numbered by the printed parent chain."}
{"data": "Sample 1", "target": "RING finger protein unkempt homolog, zinc fingers 1-6, GST-SBP tag (UNK, Homo sapiens, UniProt Q9C0B0, residues 30-357)", "method": "RNA Bind-n-Seq", "form": "RNA", "sample": "in vitro", "concentration": "not given", "setting": "RNA with constant flanks, ends assumed", "baseline": "input RNA pool", "reading": "higher = stronger binding", "chain of UniProt Q9C0B0 (30-357, looked up)": "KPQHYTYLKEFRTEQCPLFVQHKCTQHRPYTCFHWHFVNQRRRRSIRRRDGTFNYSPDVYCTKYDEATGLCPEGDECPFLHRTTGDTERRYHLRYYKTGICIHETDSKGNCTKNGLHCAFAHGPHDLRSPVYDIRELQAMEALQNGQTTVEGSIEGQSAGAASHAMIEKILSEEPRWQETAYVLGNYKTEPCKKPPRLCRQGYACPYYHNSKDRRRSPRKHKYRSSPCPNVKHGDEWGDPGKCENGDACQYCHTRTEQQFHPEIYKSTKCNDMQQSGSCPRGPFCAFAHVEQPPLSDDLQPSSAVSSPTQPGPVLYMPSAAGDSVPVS"}
{"Strand": "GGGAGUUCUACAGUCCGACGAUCAAACUUCACUCAUCAUUUGAAUACAGUAUUUACAGAGGAUGUUUGAGUUGAGAGCUUUUUCCGGUUUGAGGGGCUUGAUUUUUUUGUAAAUAAAAUUAUGCUUUGUGGCUAUCCAUCAACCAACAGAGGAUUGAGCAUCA", "bound/input enrichment": "0.134 ratio"}
{"Strand": "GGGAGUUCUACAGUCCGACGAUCGACUUAGAUAAUUCUUUGGAAGUGAAAGCUAAACCUGCUUCUGGCCUAGAUGGUAAUUUCAACCGUGUCCGAAUGGAUAUGUUCAGUGUGUAGGAGUGAAGACAGGAUCCCGUGCUUAAACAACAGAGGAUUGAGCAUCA", "bound/input enrichment": "0.39 ratio"}
{"Strand": "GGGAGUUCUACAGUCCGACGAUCAUAUCUUCCGAAGAGGGAGAGACGGAAGCUAAUAAUCACAAGAAGUUGUCAGAAUUUGGAAUCCGAAAUGGCAGCCGGCUUCAAGCAGAUGACUUCCUCCAGGACUAUACUUUAUUGAUCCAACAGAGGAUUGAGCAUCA", "bound/input enrichment": "0.137 ratio"}
{"Strand": "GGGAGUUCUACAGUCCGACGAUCGCCAUUACAACUCUCCACAACCUUUUAUUACAUCAAGAAGGAGCUAAAAUGGCAGUGCGUUCCGCUGGUGGGCUGCAGAAAAUGGUUGCCUUGCUCAACAAAACAAAUGUUAAAUUCUUGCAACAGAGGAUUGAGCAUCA", "bound/input enrichment": "0.22 ratio"}
{"Strand": "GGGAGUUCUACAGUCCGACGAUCCUUUAAGUCUUUGAGAGGGGCCUGAAGAGCCUCCGGGCUCCUGGGACAUUGAUGUAGAGUUUUCCGUGAAGUGGGCACCUUUCUAGUCCACGGCAUUUGAAGAGAGCGAGGAGAACCAUUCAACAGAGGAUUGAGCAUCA", "bound/input enrichment": "0.268 ratio"}
{"Strand": "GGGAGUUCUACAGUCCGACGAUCGGGCCUCUGUUCAAUACCGACUAUGACAUCCUUAAAAGCAAUUUGCAGAACUGCAGCAAGUUCCGUGCCAUACAGUGUGCAGCUGCAGUCCCCAGAGCUCCUGCAGAAUCCCCAUCUUCCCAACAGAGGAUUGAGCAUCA", "bound/input enrichment": "0.286 ratio"}
{"Strand": "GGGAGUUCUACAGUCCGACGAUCCACCUAAGAGAUAAGAGCACCGACUGCUGUGGGGAUAAUGAUCCCAUUGACGUCUGUGAAACCGGCUCAAAGGUUCUUUCCCGUGGAGACGUGGUCCAUGUGAAGAUCCUUGGGACUUUGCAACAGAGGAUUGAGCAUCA", "bound/input enrichment": "0.106 ratio"}
{"Strand": "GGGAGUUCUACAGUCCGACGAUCUUCACCGAGCUCAUUAAAGGAUUCGGUUGCCGAGGGGCCCAAGUAGAAGAAAUAUGGAGCUCCGAACCUGAGAGUUUUGAAAAGCUAAAGCCAGUUCAUGGGUUAAUUUUUCUUUUCAAGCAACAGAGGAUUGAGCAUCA", "bound/input enrichment": "0.241 ratio"}
{"data": "Sample 2", "target": "FOS, bZIP domain (human)", "method": "DHFR protein complementation", "sample": "yeast", "setting": "single substitutions, most at no-binding floor", "baseline": "wild-type JUN-FOS pair", "reading": "higher = stronger binding", "starting sequence": "JUN, bZIP domain (human); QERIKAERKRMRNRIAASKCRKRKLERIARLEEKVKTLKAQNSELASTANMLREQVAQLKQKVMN; partner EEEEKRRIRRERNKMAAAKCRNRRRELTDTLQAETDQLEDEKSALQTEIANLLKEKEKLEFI"}
{"Change": "M51S", "binding fitness": "-0.0497 natural log"}
{"Change": "L31F", "binding fitness": "-0.346 natural log"}
{"Change": "E44W", "binding fitness": "-0.587 natural log"}
{"Change": "V35A", "binding fitness": "-0.201 natural log"}
{"Change": "K34P", "binding fitness": "-1.34 natural log"}
{"Change": "M51K", "binding fitness": "0.0346 natural log"}
{"Change": "E54V", "binding fitness": "-0.314 natural log"}
{"Change": "L59G", "binding fitness": "-1.19 natural log"}
{"Change": "L59V", "binding fitness": "-1.07 natural log"}
{"Change": "M51N", "binding fitness": "-0.0369 natural log"}
{"Change": "T37M", "binding fitness": "0.194 natural log"}
{"Change": "A29D", "binding fitness": "-0.124 natural log"}
{"Change": "K39G", "binding fitness": "-0.865 natural log"}
{"Change": "E32K", "binding fitness": "-0.0302 natural log"}
{"Change": "Q41K", "binding fitness": "-0.237 natural log"}
{"Change": "V35N", "binding fitness": "-0.136 natural log"}
{"Change": "Q41G", "binding fitness": "-0.161 natural log"}
{"Change": "V35M", "binding fitness": "-0.195 natural log"}
{"Change": "Q41T", "binding fitness": "-0.0894 natural log"}
{"Change": "R53T", "binding fitness": "-0.757 natural log"}
{"Change": "S43D", "binding fitness": "-0.0814 natural log"}
{"Change": "L45A", "binding fitness": "-1.08 natural log"}
{"Change": "A57G", "binding fitness": "-0.175 natural log"}
{"Change": "Q55H", "binding fitness": "-0.106 natural log"}
{"Change": "L59Q", "binding fitness": "-1.33 natural log"}
{"data": "Sample 3", "target": "Histone acetyltransferase KAT6A, both winged helices, GST fusion (KAT6A, Homo sapiens, UniProt Q92794, residues 1-181)", "method": "protein binding microarray", "form": "double-stranded DNA, one strand shown", "sample": "in vitro", "concentration": "not given", "setting": "8-mer, flanks averaged, mean of 2 arrays, mostly near background", "baseline": "not given", "reading": "higher = stronger binding", "Target sequence (chain)": "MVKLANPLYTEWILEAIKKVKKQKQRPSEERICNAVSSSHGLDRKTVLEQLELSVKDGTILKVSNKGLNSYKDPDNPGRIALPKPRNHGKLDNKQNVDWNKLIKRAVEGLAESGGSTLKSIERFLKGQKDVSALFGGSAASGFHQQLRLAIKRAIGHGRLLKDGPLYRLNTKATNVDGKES"}
{"Strand": "ATACGTCA", "E-score": 0.0863}
{"Strand": "TGGTCAAA", "E-score": -0.14}
{"Strand": "CCTGCATC", "E-score": -0.0893}
{"Strand": "GGTATGTA", "E-score": -0.0935}
{"Strand": "ATACTCGA", "E-score": -0.0689}
{"Strand": "AATATAGT", "E-score": -0.0184}
{"Strand": "CATTGACC", "E-score": 0.0145}
{"Strand": "CAGCTATG", "E-score": -0.167}
{"Strand": "CAAGCCTC", "E-score": -0.257}
{"Strand": "CCTTCGTA", "E-score": -0.0319}
{"Strand": "CATGAACG", "E-score": -0.0204}
{"Strand": "GGACGGCC", "E-score": 0.251}
{"Strand": "CGCGCCTA", "E-score": 0.295}
{"Strand": "ACATGAAC", "E-score": 0.0229}
{"Strand": "CCATGTAA", "E-score": 0.0711}
{"Strand": "ATTCAATG", "E-score": -0.0858}
{"Strand": "AAATGCTG", "E-score": -0.253}
{"Strand": "CGCTGTCC", "E-score": 0.243}
{"Strand": "ATCTTAAT", "E-score": -0.116}
{"Strand": "TATCTCGA", "E-score": -0.096}
{"Strand": "CAGCACGG", "E-score": 0.141}
{"data": "Sample 4", "target": "CCND2, cyclin fold, Cln2 fusion (human)", "method": "yeast growth competition, sequencing", "sample": "yeast", "setting": "weak parent motif", "baseline": "not given", "reading": "higher = stronger binding", "starting sequence": "ORC1 docking peptide (human); PRARKRLELGNLG; partner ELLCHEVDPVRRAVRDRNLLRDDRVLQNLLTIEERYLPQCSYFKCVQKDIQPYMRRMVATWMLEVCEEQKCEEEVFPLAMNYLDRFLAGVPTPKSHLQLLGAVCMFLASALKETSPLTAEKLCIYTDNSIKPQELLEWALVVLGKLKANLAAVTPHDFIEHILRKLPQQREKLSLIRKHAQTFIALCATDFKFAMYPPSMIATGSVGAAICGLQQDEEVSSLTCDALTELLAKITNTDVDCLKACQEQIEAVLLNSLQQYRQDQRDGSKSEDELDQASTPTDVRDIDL"}
{"Change": "A3S", "normalised enrichment score": 0.392}
{"Change": "K5T", "normalised enrichment score": 0.187}
{"Change": "K5C", "normalised enrichment score": 0.127}
{"Change": "P1R", "normalised enrichment score": 0.33}
{"Change": "N11I", "normalised enrichment score": -0.244}
{"Change": "R2K", "normalised enrichment score": 0.0774}
{"Change": "A3T", "normalised enrichment score": 0.39}
{"Change": "P1S", "normalised enrichment score": -0.214}
{"Change": "L9D", "normalised enrichment score": 0.147}
{"Change": "R2L", "normalised enrichment score": 0.239}
{"Change": "P1M", "normalised enrichment score": -0.00802}
{"Change": "R2Y", "normalised enrichment score": -0.294}
{"Change": "R6K", "normalised enrichment score": 0.0896}
{"Change": "K5R L9F", "normalised enrichment score": 1.17}
{"Change": "R4S", "normalised enrichment score": 0.454}
{"Change": "N11W", "normalised enrichment score": 0.237}
{"Change": "L9E", "normalised enrichment score": 0.116}
{"Change": "G10C", "normalised enrichment score": -0.00546}
